# Results gathered from unrelated publications.
# Values joined by “and” are separate records of one study, mostly repeats; a detail may differ. ± gives the spread as reported.
SMILES,assay,test system,setting,how to read,endpoint,value
CC(=O)N([O-])CCCCCNC(=O)CCC(=O)N([O-])CCCCCNC(=O)CCC(=O)N([O-])CCCCCN.[89Zr+4],radio-TLC,aqueous buffer,"3 d, pH 8.5, 37 °C, 89Zr-labelled complex, added: DTPA 1000-fold excess",,intact complex,92.6 ± 0.5%
CC[C@H](C)[C@H](NC(=O)[C@H](CCC(N)=O)NC(=O)[C@@H](NC(=O)[C@@H]1CCCN1[C@@H]1CN(C(=O)[C@H](CCCCN)NC(=O)[C@H](CC(N)=O)NC(=O)[C@@H](NC(=O)[C@@H](NC(=O)[C@H](CCC(N)=O)NC(=O)[C@@H](N)C(C)C)[C@@H](C)CC)[C@@H](C)CC)CC[C@H]1NS(=O)(=O)c1ccc(C)cc1)C(C)C)C(=O)N[C@H](C(=O)N[C@@H](Cc1ccc(O)cc1)C(=O)N[C@@H](CCCCN)C(N)=O)C(C)C,CD spectroscopy,20 mM phosphate buffer,"125 µM, 37 °C",,random coil content,55.9%
Cc1cc(Cl)cc(S(C)=NC#N)c1NC(=O)c1cc(Br)nn1-c1ncccc1Cl (stereo not drawn),potentiometric,,,,logP,3.37
C=C(NC(=O)c1csc(-c2nc3c(cc2O)-c2nc(cs2)C(=O)NC(C(C)O)C(=O)NC(=C(C)OC)c2nc(cs2)C(=O)NC2c4nc(cs4)C(=O)NC(COC(=O)c4c5c6c(cccc6n4O)COC(=O)C(OC4CC(C)(O)C(N(C)C)C(C)O4)C2OC5)c2nc-3cs2)n1)C(N)=O (stereo not drawn),,"ICR mice, Streptococcus pneumoniae ATCC 49169 infected, immunocompromised, blood","intravenous, 32 mg/kg/day three times daily",,Tmax,6.08 h
COc1cc(N2CCN(C(=O)C3CCCN3)CC2)ccc1Nc1ncc(Cl)c(Nc2ccccc2P(C)(C)=O)n1 (stereo not drawn),,"nude mice, NCI-H3122 xenograft","oral, dose not given, day 13",,body weight,22.8 g and 22.9 g and 22.7 g and 23.5 g and 25.3 g
Cc1cc(-c2ccc(C(=O)[C@@H]3CCCC[C@H]3C(=O)Nc3cnn4c3C(=O)NCC4)cc2)[nH]n1,,"human, faeces","oral, 200 mg, 0-192 h",relative to: dose,cumulative radioactivity recovery,74.4% and 81.3% and 75.8% and 85.4% and 75.9%
O=C([O-])CN1CCN(CC(=O)[O-])CCN(CC(=O)[O-])CC1.[44Sc+3],,"mouse, liver","intravenous, 1 h",,tracer uptake,0.21 %ID/g
O=C(NC1(C(F)(F)F)CCC1)c1ccccc1,,water,24 h,,logP,2.48
O=C(NS(=O)(=O)c1cccs1)c1cc2ccccc2n1Cc1ccc(Br)c2ccccc12,,"KM mouse, chronic hyperuricaemia model","dose not given, day 17",,body weight,36.5 g and 30 g and 34.6 g and 37.7 g and 32.2 g and 33.6 g
C/C(N)=N/C(=N\S(=O)(=O)c1ccc(C(F)(F)F)cc1)N1C[C@H](c2ccccc2)C(c2ccc(Cl)cc2)=N1,metabolic stability,"monkey, liver microsomes",,,half-life,> 2 h
CCn1nc(Cl)c2c1-c1cnc(N)c(c1)O[C@H](C)c1cc(F)ccc1-c1nn(C)cc1C2,,"Balb/c nude mouse, female, plasma","0.5 mg/kg twice daily for 5 days, 12 h",,free plasma concentration,3.48 nM
C=CC(=O)Nc1cc(Nc2nccc(-c3c[nH]c4ccccc34)n2)c(OC)cc1N(C)CCN(C)C,storage stability,human dried blood spot,"2 h, -80 °C, MQC level",,recovery,88.6%
Cc1ccc(OCC(=O)N(Cc2cccs2)c2ccn[nH]2)cc1,,dog plasma,"750 ng/mL, 2 h, 37 °C, unit not given",relative to: time zero,remaining compound,100
N#C[C@@H]1CCCN1C(=O)CNC(=O)c1ccnc2ccc(OCCCN3CCN(C(=O)CCc4ccc5c(c4)CN4CCN(Cc6cc(CCC(=O)O)ccc6O)CC(=O)[O][Al-]([18F])([O]C(=O)C4)[O]5)CC3)cc12 (stereo partly drawn),radio-TLC,"CD-1 mice, plasma","intravenous, 60 min post-injection",,radiochemical purity,88.5 ± 3.1%
CC(C)(O)c1ccc(N2Cc3c(ccnc3-c3ccc(F)cc3OCC(F)(F)F)C2=O)cc1,,"male C57BL/6 mouse, plasma","oral, 1 mg/kg, 6 h",,concentration,428 ng/mL
COc1cccc(OC)c1-c1cc(C(=O)NC2(C(=O)O)C3CC4CC(C3)CC2C4)nn1-c1ccc(C(=O)N(C)CCOCCN(C)C(=O)[C@H](CCCCNC(=O)[C@H](CC(C)C)NC(=O)C2OC2C(=O)O)NC(=O)CN2CCN(CC(=O)[O-])CCN(CC(=O)[O-])CCN(CC(=O)[O-])CC2)cc1C(C)C.[177Lu+3] (mixture of isomers),,"mouse, HT-29 xenograft","4 h post injection, biodistribution",relative to: tumour over muscle uptake,tumour-to-muscle ratio,21
CCCCN1C(=O)c2cccc3c(NCCCCCCN4CCOCC4)ccc(c23)C1=O,,ethylene glycol,,,fluorescence lifetime,6.9 ns
COc1ccc([C@@H]2CC(=O)c3c(O)cc(O[C@@H]4O[C@H](CO)[C@@H](O)[C@H](O)[C@H]4O[C@@H]4O[C@@H](C)[C@H](O)[C@@H](O)[C@H]4O)cc3O2)cc1O,,"Sprague-Dawley rat, male, obese, plasma","oral, 100 mg/kg",,AUC(0-t),40 ± 4.53 ng·h/mL
O=C(Nc1cnccc1-c1ccc([18F])cc1)c1ccnc(NC(=O)C2CC2)c1,ex vivo gamma counting,"GSK-3β transgenic mice, late-stage, stomach","intravenous, 1.26 MBq/animal, 120 min, mean, no P-gp inhibitor",,SUV,1.22
COc1ccc2c(c1)C(C)(C)C(/C=C/C1=C(Oc3ccc(C(=O)NCCCCOc4cc(CN(Cc5ccccn5)Cc5ccccn5)cc(CN(Cc5ccccn5)Cc5ccccn5)c4)cc3)C(=C/C=C3/N(CCCCS(=O)(=O)[O-])c4ccc(OC)cc4C3(C)C)CCC1)=[N+]2CCCCS(=O)(=O)[O-].O=[N+]([O-])[O-].O=[N+]([O-])[O-].[99Tc+].[C-]#[O+].[C-]#[O+].[C-]#[O+].[Zn+2],,"mouse, spleen",12 h,,tracer uptake,9.23 %ID/g
N#C[C@@H]1CCCN1C(=O)CNC(=O)c1ccnc2ccc(OCCCN3CCN(C(=O)CCc4ccc(O)c(CN5CCN6CC(=O)[O][Al-]([18F])([O]C(=O)C5)[O]c5ccc(CCC(=O)N7CCN(CCCOc8ccc9nccc(C(=O)NCC(=O)N%10CCC[C@H]%10C#N)c9c8)CC7)cc5C6)c4)CC3)cc12 (stereo partly drawn),,"BALB/c nude mice, U-87 MG tumour",120 min post-injection,relative to: tumour over bone,tumour-to-organ ratio,4.36 ± 2.14
O=C(c1ccccc1)N1C(c2ccc(OCC3CCN(CCCF)C3)cc2)c2ccc(O)cc2CC12CC2 (stereo not drawn),,"C57BL/6J mouse, plasma","intraperitoneal, 25 mg/kg, group mean",,AUC(0-inf),8350 ng·h/mL
COC1C=COC2(C)Oc3c(C)c(O)c4c(c3C2=O)C2=NC3(CCN(CC(C)C)CC3)NC2=C(NC(=O)C(C)=CC=CC(C)C(O)C(C)C(O)C(C)C(OC(=O)c2cncnc2)C1C)C4=O (stereo not drawn),,"CD-1 mouse female, plasma","intravenous, 5 mg/kg",,elimination rate constant,2.69e-05 s⁻¹
CCCCN1C(=O)c2cccc3c(NCCCCN4CCOCC4)ccc(c23)C1=O,,ethylene glycol,,,fluorescence quantum yield,0.3
CN(Cc1ccccc1)C(=O)CN1CCN(CC(=O)[O-])CCN(CC(=O)[O-])CC1.[18F-].[Sc+3],,"mouse, heart","intravenous, 1 h",,tracer uptake,0.11 %ID/g
O=C1C2CC3CC1CC(C(=O)N1CCN(c4ccc([N+](=O)[O-])c5ncccc45)CC1)(C3)C2,,"ICR mice male, plasma","oral, 5 mg/kg",,MRT,0.772 h
CN(Cc1ccccc1)C(=O)CN1CCN(CC(=O)N(C)Cc2ccccc2)CCN(Cc2cccc(C(=O)[O-])n2)CC1.[44Sc+3],,"mouse, blood","intravenous, 1 h",,tracer uptake,2.17 %ID/g
CC[C@H](C)[C@@H]1NC(=O)[C@H](Cc2ccc(O)cc2)NC(=O)CCCSC[C@@H](C(=O)N(CC(=O)N[C@@H](CC(C)C)C(=O)NCC(N)=O)Cc2ccc(F)cc2)NC(=O)[C@H](CC(N)=O)NC(=O)[C@H](CCC(N)=O)NC1=O,,human,"intranasal, 5 µg single dose",,severe adverse events,0%
N=C(N)NCCC[C@@H]1NC(=O)[C@H](CO)NC(=O)[C@@H](NC(=O)[C@H](CO)NC(=O)[C@H](CO)NC(=O)[C@H](Cc2c[nH]c3ccccc23)NC(=O)CNC(=O)[C@H](CO)NC(=O)[C@@H](N)Cc2c[nH]c3ccccc23)CSSC[C@@H](C(=O)NCC(=O)O)NC(=O)[C@H](CO)NC1=O,,"patients, plasma","intravenous, 5 mg/kg, thrice weekly, median",,Ctrough,0 ng/mL
CN(Cc1ccccc1)C(=O)CN1CCN(CC(=O)[O-])CCN(CC(=O)N(C)Cc2ccccc2)CC1.[18F-].[Sc+3],,"mouse, muscle","intravenous, 1 h",,tracer uptake,0.11 %ID/g
CCC1CNC(CC)CN(C(C(=O)[O-])c2ccc(C(=O)[O-])cc2)C(CC)CN(CC(=O)[O-])C(CC)CN1.[Mn+2] (stereo not drawn),ICP-MS,"BALB/c mouse, liver","intravenous, 0.05 mmol/kg, 30 min, without anaesthesia",,Mn content,3.35 ± 0.38 µg/g
O=C(Nc1cnccc1-c1ccc([18F])nc1)c1ccnc(NC(=O)C2CC2)c1,ex vivo gamma counting,"GSK-3β transgenic mice, early-stage, feces","intravenous, 120 min, mean, P-gp inhibitor pretreatment, added: tariquidar 15 mg/kg iv",,SUV,16
Cc1nn(-c2nc3c(F)cc(F)cc3s2)c(O)c1C(c1ccc(C(F)(F)F)cc1)c1c(C)nn(-c2nc3c(F)cc(F)cc3s2)c1O,,"ICR mouse, plasma","oral, 50 mg/kg",,elimination rate constant,3.23e-05 s⁻¹ and 6.89e-05 s⁻¹ and 5.57e-05 s⁻¹
CN([O-])C(=O)CN1CCN(CC(=O)N(C)[O-])CCN(CC(=O)N(C)[O-])CC1.[89Zr+4],radio-TLC,human serum,"7 days, run 1",,intact complex,98%
O=C1NC2(CC2)COc2ncc(F)cc2[C@H]2COCCN2c2ccn3ncc1c3n2,bone marrow micronucleus test,"NIH mice, male, bone marrow","oral, 20 mg/kg/day, 24 h",,micronucleus rate,0.8 ± 0.41 ‰
O=C([O-])CN1CCN(CC(=O)[O-])CCN(Cc2cccc(C(=O)[O-])n2)CC1.[18F-].[Sc+3],,"mouse, bone","intravenous, 1 h",,tracer uptake,0.2 %ID/g
Cc1[nH]c(=O)c(CNC(=O)c2cc(Cl)c3c(c2C)O[C@@](C)([C@H]2CC[C@H](N(C)C)CC2)O3)c(C)c1O,,"human, plasma","oral, 200 mg, single dose, metabolite of valemetostat, added: [14C]-valemetostat",,AUC(0-last),12400 ng·h/mL
CN(Cc1ccccc1)C(=O)CN1CCN(CC(=O)[O-])CCN(Cc2cccc(C(=O)[O-])n2)CC1.[177Lu+3],,"mouse, heart","intravenous, 1 h",,tracer uptake,0.26 %ID/g
COc1cccc(OC)c1-c1cc(C(=O)NC2(C(=O)O)C3CC4CC(C3)CC2C4)nn1-c1ccc(C(=O)NCCNC(=O)[C@H](CCCCNC(=O)[C@H](CC(C)C)NC(=O)C2OC2C(=O)O)NC(=O)CN2CCN(CC(=O)[O-])CCN(CC(=O)[O-])CCN(CC(=O)[O-])CC2)cc1C(C)C.[177Lu+3] (mixture of isomers),,"mouse, HT-29 xenograft","4 h post injection, biodistribution",relative to: tumour over muscle uptake,tumour-to-muscle ratio,15

# For quick reference, copied from above:
SMILES,assay,test system,setting,how to read,endpoint,value
COc1ccc2c(c1)C(C)(C)C(/C=C/C1=C(Oc3ccc(C(=O)NCCCCOc4cc(CN(Cc5ccccn5)Cc5ccccn5)cc(CN(Cc5ccccn5)Cc5ccccn5)c4)cc3)C(=C/C=C3/N(CCCCS(=O)(=O)[O-])c4ccc(OC)cc4C3(C)C)CCC1)=[N+]2CCCCS(=O)(=O)[O-].O=[N+]([O-])[O-].O=[N+]([O-])[O-].[99Tc+].[C-]#[O+].[C-]#[O+].[C-]#[O+].[Zn+2],,"mouse, spleen",12 h,,tracer uptake,9.23 %ID/g
N#C[C@@H]1CCCN1C(=O)CNC(=O)c1ccnc2ccc(OCCCN3CCN(C(=O)CCc4ccc(O)c(CN5CCN6CC(=O)[O][Al-]([18F])([O]C(=O)C5)[O]c5ccc(CCC(=O)N7CCN(CCCOc8ccc9nccc(C(=O)NCC(=O)N%10CCC[C@H]%10C#N)c9c8)CC7)cc5C6)c4)CC3)cc12 (stereo partly drawn),,"BALB/c nude mice, U-87 MG tumour",120 min post-injection,relative to: tumour over bone,tumour-to-organ ratio,4.36 ± 2.14
O=C(c1ccccc1)N1C(c2ccc(OCC3CCN(CCCF)C3)cc2)c2ccc(O)cc2CC12CC2 (stereo not drawn),,"C57BL/6J mouse, plasma","intraperitoneal, 25 mg/kg, group mean",,AUC(0-inf),8350 ng·h/mL
COC1C=COC2(C)Oc3c(C)c(O)c4c(c3C2=O)C2=NC3(CCN(CC(C)C)CC3)NC2=C(NC(=O)C(C)=CC=CC(C)C(O)C(C)C(O)C(C)C(OC(=O)c2cncnc2)C1C)C4=O (stereo not drawn),,"CD-1 mouse female, plasma","intravenous, 5 mg/kg",,elimination rate constant,2.69e-05 s⁻¹
